Assay results pooled from the literature.
Protocols differ between the studies behind these lines. Several values in a cell are separate wells, animals, samples, runs or records. ± gives the spread as reported.
TOP2A: DNA topoisomerase 2-alpha (TOP2A, Homo sapiens, UniProt P11388)
T1: ssDNA, aptamer; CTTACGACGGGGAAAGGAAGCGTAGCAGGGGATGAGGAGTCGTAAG
T2: RNA, 2'-deoxy at 37-40 (Fusobacterium nucleatum); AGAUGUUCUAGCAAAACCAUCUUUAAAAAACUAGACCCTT

Compound	target	assay	test system	setting	how to read	endpoint	value
Nc1nc2c(ncn2[C@@H]2O[C@H](COP(=O)(O)O)[C@@H](O)[C@H]2O)c(=O)[nH]1	GUK1 (Homo sapiens, UniProt Q16774)	enzyme activity, NADH-coupled		7.812 µM, with: KCl 10 mM		reaction velocity	0.0234 µM/s and -0.000914 µM/s and 0.0122 µM/s
Nc1ncnc2c1ncn2[C@@H]1O[C@H](COP(=O)(O)OP(=O)(O)O)[C@@H](O)[C@H]1O	T1, ssDNA, aptamer	ITC				Kd	19900 nM
CC[C@@H]1[C@H](F)C(=O)N[C@@H]1COc1nccc2cc(C(N)=O)c(OC)cc12	Protein kinase C iota type (PRKCI, Homo sapiens, UniProt P41743)	ATP probe binding, KiNativ profiling, refers to: Lys2 probe site	THP-1 cell lysate	0.01 mM		inhibition	-6.4%
CCNC(=O)/C=C/c1cccc(Br)c1	Sodium-dependent neutral amino acid transporter B(0)AT1 (SLC6A19, Homo sapiens, UniProt Q695T7)	inhibitor, FLIPR membrane potential	CHO-BC cells	0.3 µM, unit not given	relative to: no inhibitor	remaining transport activity	0.738
Nc1ccn([C@@H]2O[C@H](COP(=O)(O)OP(=O)(O)OP(=O)(O)O)[C@@H](O)[C@H]2O)c(=O)n1	DNA-directed RNA polymerase subunit beta' / DNA-directed RNA polymerase subunit beta (rpoC/rpoB, Escherichia coli, UniProt P0A8T7+P0A8V2)	RNA extension, rapid quench-flow	Escherichia coli, elongation complex, 6-MI template	200 µM, 25 °C, fast complex fraction		nucleotide addition rate	81 ± 5 s⁻¹
O=c1nc(SCc2cc(F)cc(C(F)(F)F)c2)nc(SCc2csc3ccc(Cl)cc23)[nH]1	TOP2A	DNA relaxation		1.95 µM, replicate 1		relaxed DNA	92.1%
Nc1ncnc2c1ncn2[C@@H]1O[C@H](COP(=O)(O)CP(=O)(O)OP(=O)(O)O)[C@@H](O)[C@H]1O	P2X purinoceptor 1 (P2RX1, Homo sapiens, UniProt P51575, E282A)	calcium influx		316 nM	relative to: ionomycin response	calcium influx	97.3% and 100%
Cc1cc(-c2cccc(-n3cc(COC(=O)[C@]4(C)C=C(C(=O)OC(C)(C)C)C(=O)CC4)nn3)c2)c(C)c2c1CNCC2	Mitogen-activated protein kinase 8 (MAPK8, Homo sapiens, UniProt P45983)	D-peptide binding, inhibitor, FP peptide displacement		6.25 µM	lower is stronger displacement	fraction bound	0.749
CCO[C@H](COc1ccc(C(F)(F)F)cc1)CSc1ccc(OCC(=O)O)c(C)c1	Peroxisome proliferator-activated receptor delta (PPARD, Homo sapiens, UniProt Q03181)	reporter gene, agonist, luciferase reporter			relative to: maximal control activation	Emax	90%
CNc1ncc2c(/C=C/C(=O)N3CCC(OC)CC3)nn(Cc3cccc(C(F)(F)F)c3)c2n1	Discoidin domain-containing receptor 2 (DDR2, Homo sapiens, UniProt Q16832)	kinase activity, inhibitor		1 µM	relative to: untreated control	remaining activity	99%
C[C@H]1O[C@@H](O[C@H]2CC[C@@]3(C)[C@@H](CC[C@]4(C)[C@@H]3C=C[C@]35OC[C@@]6(CCC(C)(C)C[C@H]63)[C@@H](O)C[C@]54C)[C@]2(C)CO)[C@H](O)[C@@H](O[C@@H]2O[C@H](CO)[C@@H](O)[C@H](O)[C@H]2O)[C@H]1O	NAD-dependent protein deacetylase sirtuin-1 (SIRT1, Homo sapiens, UniProt Q96EB6)	binding, microscale thermophoresis		150 nM		MST normalised fluorescence	885 a.u.
O=C(C=Cc1ccccc1)Nc1cccc(-c2ccnc(N3CCOCC3)c2)c1	Nuclear receptor subfamily 4 group A member 1 (NR4A1, Homo sapiens, UniProt P22736)	SPR		10.0 µM		binding response	82.3 RU
CC(C)[C@H](NC(=O)c1cc(-c2cnn3cc(-c4ccc(OCCN5CCCCC5)cc4)cnc23)cs1)C(F)(F)F	RSK3 (human)	radiometric kinase		15 nM	relative to: RSK3 over ULK1	relative inhibition	0.0341
Oc1ccccc1-c1n[nH]cc1-c1ccnc2ccccc12	Serine/threonine-protein kinase SCH9 (SCH9, Candida albicans, UniProt Q5AHG6)	kinase binding, MIB/MS competition	Candida albicans lysate	10 µM	relative to: DMSO, negative = stronger binding	log2 fold change	0.12
N#C[C@@]12C[C@@H]1[C@@H](n1cnc3c(N[C@@H](C4CCC4)C4CC4)nc(I)nc31)[C@H](O)[C@@H]2O	5-hydroxytryptamine receptor 2B (HTR2B, Homo sapiens, UniProt P41595)	antagonist, calcium flux		with: 5-HT	relative to: 5-HT2C over 5-HT2B	selectivity ratio	3.6 fold
CCCCCCCCOC(=O)NS(=O)(=O)Nc1ccc(-c2cc3ccccc3[nH]2)cc1OC	Polyunsaturated fatty acid lipoxygenase ALOX15 (Oryctolagus cuniculus, UniProt P12530)			30 µM, with: arachidonic acid		kcat	1.25 ± 0.21 s⁻¹
CCCCCCCC(=O)SCCNC(=O)CCNC(=O)[C@H](O)C(C)(C)COP(=O)(O)OP(=O)(O)OC[C@H]1O[C@@H](n2cnc3c(N)ncnc32)[C@H](O)[C@@H]1OP(=O)(O)O	Medium-chain specific acyl-CoA dehydrogenase, mitochondrial (ACADM, Homo sapiens, UniProt P11310)	charge-transfer complex formation, anaerobic spectrophotometric titration				apparent Kd	120 nM
O=c1nc(SCc2cc(F)cc(C(F)(F)F)c2)nc(SCc2ccc3sccc3c2)[nH]1	TOP2A	decatenation		31.25 µM, replicate 2		decatenated DNA	0%
Nc1ccc(S(=O)(=O)Nc2nnc(Cc3ccc(F)cc3)s2)cc1	Glutathione hydrolase 1 proenzyme, without transmembrane domain (Homo sapiens, UniProt P19440)	GSH hydrolysis, uncompetitive inhibitor		37 °C, binds gamma-glutamyl enzyme, with: GSH 5-20 µM		Kii	355 ± 16 µM
COc1cc(F)ccc1-c1ncnc(Nc2cccc(C[S@](C)(=N)=O)c2)n1	Misshapen-like kinase 1 (MINK1, Homo sapiens, UniProt Q8N4C8)	kinase activity		10 µM, with: 10 µM ATP		remaining activity	45%
CC(=C/C(=O)O)/C=C/C=C(\C)C1C=C2C(C)(C)CCCC2(C)O1 (stereo not shown)	Rhodopsin (RHO, Homo sapiens, UniProt P08100, E181K)	ER retention, immunostaining co-localization, refers to: opsin with calnexin	COS-7 transfected E181K	20.00 µM		Pearson correlation coefficient	0.42
O=C(O)[C@@H]1CCCN1c1ncnc2[nH]cnc12 (racemic)	FBXW7 (Homo sapiens, UniProt Q969H0)	binding, affinity selection mass spectrometry			relative to: other proteins in batch	log fold enrichment	-0.0576
Clc1cccc(OC[C@@H]2CN(CCN3CCc4ccccc43)CCO2)c1	5-hydroxytryptamine receptor 5A (HTR5A, Homo sapiens, UniProt P47898)	radioligand binding		concentration not given, with: [3H]LSD		inhibition	5.5%
CN(C)C(=O)c1cc2cnc(Nc3ccc(N4CCNCC4)cn3)nc2n1C1CCCC1	High affinity 3',5'-cyclic-AMP phosphodiesterase 7A (PDE7A, Homo sapiens, UniProt Q13946)	HTRF		0.3 to 10 µM		enzyme activity	no effect
NCc1c[nH]c2nc(N)[nH]c(=O)c12	T2, RNA, 2'-deoxy at 37-40 (Fusobacterium nucleatum)	MST		apparent		Kd	360 nM
NCCCC(=O)O	Sodium- and chloride-dependent taurine transporter (SLC6A6, Homo sapiens, UniProt P31641, G62A)	binding, microscale thermophoresis		1 mM, room temperature, with: 50 nM labelled protein	higher = more binding	normalised MST signal	-0.0293
CC(=O)N[C@H](C(=O)N1C[C@H](O)C[C@H]1C(=O)NCc1ccc(-c2scnc2C)cc1)C(C)(C)SCCCCCCNC(=O)C[C@@H]1N=C(c2ccc(Cl)cc2)c2c(sc(C)c2C)-n2c(C)nnc21	Bromodomain-containing protein 2, BD1 (BRD2, Homo sapiens, UniProt P25440)	binding, ITC		25 °C, compound in cell, protein in syringe		ΔG	-9.49 ± 0.07 kcal/mol
O=[N+]([O-])c1cc(C(F)(F)F)ccc1NCc1ccco1	Endothelial PAS domain-containing protein 1, PAS-B domain (EPAS1, Homo sapiens, UniProt Q99814)	binding, ITC, reverse mode				TΔS	-0.3 ± 0.04 kcal/mol

Excerpt of the above:
Compound	target	assay	test system	setting	how to read	endpoint	value
O=C(C=Cc1ccccc1)Nc1cccc(-c2ccnc(N3CCOCC3)c2)c1	Nuclear receptor subfamily 4 group A member 1 (NR4A1, Homo sapiens, UniProt P22736)	SPR		10.0 µM		binding response	82.3 RU
Nc1ncnc2c1ncn2[C@@H]1O[C@H](COP(=O)(O)CP(=O)(O)OP(=O)(O)O)[C@@H](O)[C@H]1O	P2X purinoceptor 1 (P2RX1, Homo sapiens, UniProt P51575, E282A)	calcium influx		316 nM	relative to: ionomycin response	calcium influx	97.3% and 100%
CNc1ncc2c(/C=C/C(=O)N3CCC(OC)CC3)nn(Cc3cccc(C(F)(F)F)c3)c2n1	Discoidin domain-containing receptor 2 (DDR2, Homo sapiens, UniProt Q16832)	kinase activity, inhibitor		1 µM	relative to: untreated control	remaining activity	99%
